Measurements from different studies.
Protocols differ between the studies behind these lines. Numbers after ± are the reported error.

SMILES | test | system | setting | solubility
CC(C)(C)NC(=O)[C@@H]1C[C@@H]2CCCC[C@@H]2CN1C[C@@H](OC(=O)CCC(=O)OC[C@H](O)[C@H]1OC(=O)C(O)=C1O)[C@H](Cc1ccccc1)NC(=O)[C@H](CC(N)=O)NC(=O)c1ccc2ccccc2n1 |  | water | 25 °C | 4910 ± 400 µM
COc1cc(/C=C/C(=O)/C=C/c2ccc(O)c(OC)c2)ccc1O | HPLC | polyethylene glycol 400 |  | 86200 ± 4340 µg/mL
c1cc2nc(-c3ccc(-c4nc5ccc(C6=NCCN6)cc5[nH]4)[se]3)[nH]c2cc1C1=NCCN1 | maximal concentration without aggregation | Tris buffer |  | ≤ 0.1 µM
COc1ccc2ccc3c(c2c1)C=[N+]1C2CCCCC2[N+]2=Cc4ccc(OCCN5CCCCC5)cc4[O][Au-]21[O]3.F[P-](F)(F)(F)(F)F (stereo not drawn) |  | PBS-DMF | pH 7.4 | 127 µM
CC(C)(O)Cn1nc(-c2ccc3nc(OC(F)F)ccc3c2)c2c(N)ncnc21 |  |  | pH 2 | 95.1 µM
C=C(c1ccc(C(=O)O)c(F)c1)c1cc2c(cc1C)C(C)(C)C=CC2(C)C |  | deionized water | 24 h, 20 °C | 15 ± 1 µM
CC1(C)C(/C=C/C2=C(Cl)C(=C/C=C3/N(CCCCCC(=O)O)c4ccccc4C3(C)C)/C[N+](C)(C)C2)=[N+](CCCCCC(=O)O)c2ccccc21 | UV absorbance | PBS |  | 50 µM
CC[C@H](C)[C@@H]1NC(=O)[C@H](CC(=O)O)NC(=O)[C@H](CC(=O)O)NC(=O)[C@@H]2CCCN2C(=O)[C@H]2CCCN2C(=O)[C@H](CC(=O)O)NC(=O)[C@H](Cc2ccc(O)cc2)NC(=O)[C@H]([C@@H](C)CC)NC(=O)[C@H](CO)NC(=O)[C@H](CCCCN)NC1=O |  | water | complete dissolution at NMR concentration | ≥ 2500 µg/mL
CCCC1OC2CC3C4CCC5=CC(=O)C=CC5(C)C4C(O)CC3(C)C2(C(=O)COC(=O)CN)O1 (stereo not drawn) | HPLC | water | 72 h, 25 °C | 0.402 g/100 g
CN(Cc1cc(C2CC2)on1)C(=O)c1cccc(-c2ccc3c(c2)CCO3)c1 |  | RPMI/MOPS medium |  | 64 µg/mL
O=C(O)c1ccc(/C=C2\SC(=S)N(Cc3cccc(C(F)(F)F)c3)C2=O)cc1 |  | DMA:EL:HP-β-CD vehicle | pH 7.4, ratio 5:5:90, 10% w/v | 1000 µg/mL
COC(=O)[C@H]1O[C@@H](NC(=O)c2ccc(S(N)(=O)=O)cc2)[C@H](O)[C@@H](O)[C@@H]1O |  | water |  | 1%
CC(C)=CCC[C@](C)(O)[C@H]1CC[C@]2(C)[C@@H]1[C@H](O)C[C@@H]1[C@@]3(C)CC[C@H](O)C(C)(C)[C@@H]3CC[C@]12C |  | isopropyl myristate | 72 h, 25 °C | 2530 ± 734 µg/mL
Cc1c(-c2ccc(Cc3ccc(OC(F)(F)F)cc3)cc2)[nH]c2cccc(F)c2c1=O |  | dichloromethane | 24 h | 3300 µM
NS(=O)(=O)c1ccc(C(=O)NC2OC[C@H](O)[C@H](O)[C@H]2O)cc1 (stereo in doubt) |  | water |  | 1.5%
CN(C)C(=S)[S][Pd][c]1ccccc1C(=O)N=P12CN3CN(CN(C3)C1)C2 |  | DMSO:water 1:99 |  | 700 µM
COc1cc(-c2nc3ccc(C(=O)NCCCN(C)C)cc3n2C2CCC2)cc(OC)c1OC | dynamic solubility |  |  | 200 µM
CC(=Nc1ccccc1)c1c(C)cc(=O)n(O)c1O |  |  | pH 7.4 | 133 µM
NS(=O)(=O)c1ccc(C(=O)N[C@@H]2O[C@H](CO)[C@@H](O)[C@H](O)[C@@H]2O)cc1 |  | water |  | 2%
CCCCCCCCCCCC(=O)O[C@@H](C(=O)O[C@H]1C[C@@]2(O)[C@@H](OC(=O)c3ccccc3)[C@@H]3[C@]4(OC(C)=O)CO[C@@H]4C[C@H](O)[C@@]3(C)C(=O)[C@H](O)C(=C1C)C2(C)C)[C@@H](NC(=O)OC(C)(C)C)c1ccccc1 |  | Miglyol 808 | 24 h, room temperature | 523000 ± 18200 µg/mL
O=S(=O)(O)c1cc(O)c(O)c(S(=O)(=O)O)c1 | UV-vis spectroscopy | 1 M H2SO4 without hydrotrope | pH 0 | 520000 ± 10000 µM
Nc1ccn(CC2COP(=O)(OCCCCCCNC(=O)CCCCC3SCC4NC(=O)NC43)CO2)c(=O)n1 (mixture of isomers) |  |  |  | 17300 ± 1020 µg/mL
CCCCCCCCCCCCCCCCCC(=O)O[C@@H](C(=O)O[C@H]1C[C@@]2(O)[C@@H](OC(=O)c3ccccc3)[C@@H]3[C@]4(OC(C)=O)CO[C@@H]4C[C@H](O)[C@@]3(C)C(=O)[C@H](O)C(=C1C)C2(C)C)[C@@H](NC(=O)OC(C)(C)C)c1ccccc1 |  | Miglyol 808 | 24 h, room temperature | 550000 ± 23500 µg/mL
NS(=O)(=O)NCC(F)(F)c1ccccc1F | shake-flask | water | pH 9.2 | 9200 µg/mL

Some of these lines once more:
SMILES | test | system | setting | solubility
O=S(=O)(O)c1cc(O)c(O)c(S(=O)(=O)O)c1 | UV-vis spectroscopy | 1 M H2SO4 without hydrotrope | pH 0 | 520000 ± 10000 µM
CN(C)C(=S)[S][Pd][c]1ccccc1C(=O)N=P12CN3CN(CN(C3)C1)C2 |  | DMSO:water 1:99 |  | 700 µM
